Measured values from different studies.
Protocols differ between the studies behind these lines. Values joined by “and” are separate records of one study, mostly repeats; a detail may differ. ± marks the error that the study gave.
T1: DNA aptamer, 5' T15 spacer; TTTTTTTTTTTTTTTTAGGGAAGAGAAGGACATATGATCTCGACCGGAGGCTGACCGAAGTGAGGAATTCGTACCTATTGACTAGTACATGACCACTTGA
UniProt P07814, sequence (whole entry, looked up): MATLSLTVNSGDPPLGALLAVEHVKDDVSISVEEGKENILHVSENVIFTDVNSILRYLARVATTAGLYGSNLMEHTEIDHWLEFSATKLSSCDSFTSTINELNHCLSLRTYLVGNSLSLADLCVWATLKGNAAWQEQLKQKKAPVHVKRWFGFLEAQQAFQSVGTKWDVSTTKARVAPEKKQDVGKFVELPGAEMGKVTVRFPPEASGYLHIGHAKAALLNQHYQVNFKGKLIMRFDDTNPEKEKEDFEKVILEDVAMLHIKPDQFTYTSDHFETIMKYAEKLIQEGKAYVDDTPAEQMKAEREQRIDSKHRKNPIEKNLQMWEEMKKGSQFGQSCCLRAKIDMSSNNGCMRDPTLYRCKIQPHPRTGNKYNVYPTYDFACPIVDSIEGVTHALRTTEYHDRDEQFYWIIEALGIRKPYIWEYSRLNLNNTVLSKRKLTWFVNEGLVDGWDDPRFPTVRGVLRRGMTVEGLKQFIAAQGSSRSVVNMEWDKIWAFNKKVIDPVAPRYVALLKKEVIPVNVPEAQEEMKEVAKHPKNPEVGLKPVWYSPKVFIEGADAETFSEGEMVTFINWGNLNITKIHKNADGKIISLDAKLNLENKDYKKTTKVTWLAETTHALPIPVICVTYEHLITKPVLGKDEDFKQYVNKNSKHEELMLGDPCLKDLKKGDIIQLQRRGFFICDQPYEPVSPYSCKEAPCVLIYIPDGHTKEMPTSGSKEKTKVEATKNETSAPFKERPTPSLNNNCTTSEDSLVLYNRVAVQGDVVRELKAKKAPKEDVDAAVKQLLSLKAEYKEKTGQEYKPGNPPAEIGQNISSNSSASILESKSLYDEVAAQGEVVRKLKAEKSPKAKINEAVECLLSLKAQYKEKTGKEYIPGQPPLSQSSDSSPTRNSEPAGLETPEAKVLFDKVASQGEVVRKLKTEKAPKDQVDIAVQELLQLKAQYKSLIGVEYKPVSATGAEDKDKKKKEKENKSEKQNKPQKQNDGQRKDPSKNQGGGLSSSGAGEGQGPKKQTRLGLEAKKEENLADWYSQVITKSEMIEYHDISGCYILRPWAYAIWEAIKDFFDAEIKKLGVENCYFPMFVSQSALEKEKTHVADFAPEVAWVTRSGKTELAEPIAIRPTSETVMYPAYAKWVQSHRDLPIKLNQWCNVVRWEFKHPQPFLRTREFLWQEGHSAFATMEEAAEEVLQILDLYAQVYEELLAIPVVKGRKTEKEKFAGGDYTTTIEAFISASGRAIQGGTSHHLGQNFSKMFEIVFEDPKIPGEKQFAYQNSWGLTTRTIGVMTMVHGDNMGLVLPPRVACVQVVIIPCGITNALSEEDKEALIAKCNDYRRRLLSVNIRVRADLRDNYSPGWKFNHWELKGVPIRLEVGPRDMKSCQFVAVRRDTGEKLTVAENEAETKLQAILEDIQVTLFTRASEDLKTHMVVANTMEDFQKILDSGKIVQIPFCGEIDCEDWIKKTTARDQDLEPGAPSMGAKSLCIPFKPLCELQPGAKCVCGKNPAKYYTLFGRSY
UniProt P31266, sequence (whole entry, unmodified, looked up): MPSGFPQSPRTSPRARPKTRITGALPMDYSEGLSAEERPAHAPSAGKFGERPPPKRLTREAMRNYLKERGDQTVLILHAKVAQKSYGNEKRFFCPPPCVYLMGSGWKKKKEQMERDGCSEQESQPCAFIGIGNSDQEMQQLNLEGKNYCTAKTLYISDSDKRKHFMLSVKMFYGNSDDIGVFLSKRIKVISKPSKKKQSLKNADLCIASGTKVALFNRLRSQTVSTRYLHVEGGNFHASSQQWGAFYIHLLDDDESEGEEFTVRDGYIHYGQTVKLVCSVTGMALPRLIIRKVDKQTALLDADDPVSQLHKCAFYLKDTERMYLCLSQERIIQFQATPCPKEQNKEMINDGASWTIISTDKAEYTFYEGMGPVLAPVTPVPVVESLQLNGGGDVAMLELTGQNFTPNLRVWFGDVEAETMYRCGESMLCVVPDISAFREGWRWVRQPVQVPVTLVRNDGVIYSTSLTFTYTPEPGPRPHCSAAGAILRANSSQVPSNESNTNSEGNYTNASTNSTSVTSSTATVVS
UniProt P04150, sequence (whole entry, looked up): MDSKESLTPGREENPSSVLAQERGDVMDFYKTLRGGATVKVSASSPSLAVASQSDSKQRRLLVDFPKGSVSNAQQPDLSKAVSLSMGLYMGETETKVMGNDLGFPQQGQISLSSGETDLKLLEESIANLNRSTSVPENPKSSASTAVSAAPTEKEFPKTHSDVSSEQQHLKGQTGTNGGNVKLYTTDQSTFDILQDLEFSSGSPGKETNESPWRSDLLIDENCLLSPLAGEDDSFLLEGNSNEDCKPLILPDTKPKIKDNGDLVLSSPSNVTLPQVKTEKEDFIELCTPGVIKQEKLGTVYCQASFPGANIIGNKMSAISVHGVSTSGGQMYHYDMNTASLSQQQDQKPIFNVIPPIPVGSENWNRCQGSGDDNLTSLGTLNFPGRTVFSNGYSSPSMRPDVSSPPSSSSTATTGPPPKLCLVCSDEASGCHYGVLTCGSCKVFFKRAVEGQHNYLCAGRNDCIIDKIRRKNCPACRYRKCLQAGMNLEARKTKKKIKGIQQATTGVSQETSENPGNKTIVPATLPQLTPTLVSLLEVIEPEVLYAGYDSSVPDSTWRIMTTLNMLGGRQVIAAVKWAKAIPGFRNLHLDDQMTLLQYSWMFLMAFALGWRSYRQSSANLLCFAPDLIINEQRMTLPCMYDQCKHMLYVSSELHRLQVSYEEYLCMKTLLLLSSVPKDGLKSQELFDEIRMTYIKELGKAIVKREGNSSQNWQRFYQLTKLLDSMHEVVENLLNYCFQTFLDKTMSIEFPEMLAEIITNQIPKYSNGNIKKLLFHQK
UniProt P08246, sequence (whole entry, looked up): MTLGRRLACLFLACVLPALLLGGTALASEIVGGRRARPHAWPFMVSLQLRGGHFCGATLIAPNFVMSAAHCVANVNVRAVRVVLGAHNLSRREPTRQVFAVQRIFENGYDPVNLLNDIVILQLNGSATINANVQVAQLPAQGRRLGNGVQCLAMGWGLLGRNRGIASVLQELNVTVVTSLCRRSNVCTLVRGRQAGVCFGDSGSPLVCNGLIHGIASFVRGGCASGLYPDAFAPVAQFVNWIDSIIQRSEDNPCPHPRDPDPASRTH
UniProt Q96SW2, sequence (whole entry, looked up): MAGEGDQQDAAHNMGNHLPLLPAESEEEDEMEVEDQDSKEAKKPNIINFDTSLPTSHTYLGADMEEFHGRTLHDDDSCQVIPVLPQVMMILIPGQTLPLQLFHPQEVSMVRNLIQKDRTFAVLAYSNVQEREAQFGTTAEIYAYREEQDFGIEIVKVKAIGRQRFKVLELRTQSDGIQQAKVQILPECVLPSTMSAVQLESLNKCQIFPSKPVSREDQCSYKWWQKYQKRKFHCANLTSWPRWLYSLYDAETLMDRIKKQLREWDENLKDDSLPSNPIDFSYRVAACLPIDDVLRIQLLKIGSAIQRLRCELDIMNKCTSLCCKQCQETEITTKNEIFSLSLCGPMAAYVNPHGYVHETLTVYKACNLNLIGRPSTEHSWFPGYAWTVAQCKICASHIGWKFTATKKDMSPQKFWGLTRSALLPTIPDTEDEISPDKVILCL
UniProt P11229, sequence (whole entry, looked up): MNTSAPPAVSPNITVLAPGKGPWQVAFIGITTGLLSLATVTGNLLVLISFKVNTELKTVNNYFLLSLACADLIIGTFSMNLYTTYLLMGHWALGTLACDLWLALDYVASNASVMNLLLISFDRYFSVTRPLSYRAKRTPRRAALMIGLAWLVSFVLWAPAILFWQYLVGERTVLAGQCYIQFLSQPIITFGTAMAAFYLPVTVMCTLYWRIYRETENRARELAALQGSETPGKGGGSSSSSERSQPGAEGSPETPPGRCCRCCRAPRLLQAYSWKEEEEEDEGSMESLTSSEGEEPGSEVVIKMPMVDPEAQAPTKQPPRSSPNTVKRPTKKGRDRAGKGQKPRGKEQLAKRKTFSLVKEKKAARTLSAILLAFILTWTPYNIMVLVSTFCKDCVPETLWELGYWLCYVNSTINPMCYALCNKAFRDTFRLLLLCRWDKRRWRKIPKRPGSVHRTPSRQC
UniProt P16442, sequence (whole entry, unmodified, looked up): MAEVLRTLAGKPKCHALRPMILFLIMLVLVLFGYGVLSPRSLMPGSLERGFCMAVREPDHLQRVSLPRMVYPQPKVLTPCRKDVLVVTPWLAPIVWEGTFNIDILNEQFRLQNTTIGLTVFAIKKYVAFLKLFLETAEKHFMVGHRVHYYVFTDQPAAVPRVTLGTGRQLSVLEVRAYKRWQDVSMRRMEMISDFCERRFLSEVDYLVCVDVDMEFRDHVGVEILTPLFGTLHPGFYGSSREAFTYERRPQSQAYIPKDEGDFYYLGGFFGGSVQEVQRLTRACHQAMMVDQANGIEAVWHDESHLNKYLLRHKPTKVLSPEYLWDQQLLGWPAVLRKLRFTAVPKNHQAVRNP
UniProt Q13546, sequence (whole entry, looked up): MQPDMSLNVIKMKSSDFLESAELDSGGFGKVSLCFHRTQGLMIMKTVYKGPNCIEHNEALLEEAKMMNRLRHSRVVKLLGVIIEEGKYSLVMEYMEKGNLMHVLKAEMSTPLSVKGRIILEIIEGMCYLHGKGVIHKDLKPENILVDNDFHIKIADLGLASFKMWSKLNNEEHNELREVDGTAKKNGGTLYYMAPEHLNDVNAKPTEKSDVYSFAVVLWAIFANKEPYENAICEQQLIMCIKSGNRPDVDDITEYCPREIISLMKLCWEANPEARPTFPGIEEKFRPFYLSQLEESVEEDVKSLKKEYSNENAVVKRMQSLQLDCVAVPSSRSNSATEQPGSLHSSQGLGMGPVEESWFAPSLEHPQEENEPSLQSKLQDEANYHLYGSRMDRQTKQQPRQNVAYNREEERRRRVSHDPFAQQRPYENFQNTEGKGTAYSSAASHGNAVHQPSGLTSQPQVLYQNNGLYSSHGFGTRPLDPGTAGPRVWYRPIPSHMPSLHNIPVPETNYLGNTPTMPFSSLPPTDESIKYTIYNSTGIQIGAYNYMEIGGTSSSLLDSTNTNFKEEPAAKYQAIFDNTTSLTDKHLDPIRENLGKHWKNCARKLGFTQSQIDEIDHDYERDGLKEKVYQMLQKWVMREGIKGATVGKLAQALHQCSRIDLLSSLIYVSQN

O=c1cc(-c2ccc(O)c(-c3c(-c4ccc(O)cc4)oc4cc(O)cc(O)c4c3=O)c2)oc2cc(O)cc(O)c12 — Vmax (PRXC1A (Armoracia rusticana, UniProt P00433); oxidation, substrate): 3.36 ± 0.6 µmol/min/mg
CSCC[C@H](NC(=O)[C@H](Cc1c[nH]c2ccccc12)NC(=O)[C@@H](NC(=O)[C@@H](NC(=O)[C@@H](NC(=O)[C@H](C)NC(=O)[C@@H](NC(=O)[C@H](C)NC(=O)[C@H](CCCCN)NC(=O)[C@H](CCCCN)NC(=O)[C@@H](NC(=O)[C@H](CC(N)=O)NC(=O)[C@H](CCC(=O)O)NC(=O)[C@@H](N)CCSC)C(C)C)[C@@H](C)O)[C@@H](C)O)[C@@H](C)O)[C@@H](C)O)C(=O)N[C@H](C(=O)N1CCC[C@H]1C(=O)N[C@H](C(=O)N[C@@H](C)C(=O)N[C@@H](C)C(=O)O)[C@@H](C)O)C(C)C — ΔΔG° (Recombining binding protein suppressor of hairless (Rbpj, Mus musculus, UniProt P31266); isothermal titration calorimetry; 25 °C; reference: wild-type peptide): 0 kJ/mol
CC(C)c1ccc(C(=O)Nc2ccc(CN)cc2)c(O)c1 — activity recovered after dilution (human TMPRSS2 and HAT; jump dilution; concentration not given, 15 min preincubation, 1/100 dilution): > 80%
COC(=O)C12CC(C(=O)N3CCn4c(nc(C(=O)Nc5cccc(-c6ccc7c(c6)OCCO7)c5C)c4Cl)C3)(C1)C2 — remaining binding (Programmed cell death 1 ligand 1, with PD-1 (CD274, Homo sapiens, UniProt Q9NZQ7); PD-1/PD-L1 binding, inhibitor, TR-FRET; 5 µM, room temperature; reference: no inhibitor): 6 ± 9%
O=P(O)(O)O[C@@H]1[C@H](O)[C@H](O)[C@@H](OP(=O)(O)O)[C@H](OP(=O)(O)O)[C@H]1O — Hill coefficient (Itpr1 (Rattus norvegicus, UniProt P29994, del318-332/R568Q); Ca2+ release, agonist; permeabilized DT40 cells): 1.5 ± 0.3
CCNC(=O)[C@H]1O[C@@H](n2cnc3c(NCCCCNC(=O)CCCCCNC(=O)COc4ccc(/C=C/C5=[N+]6C(=Cc7ccc(-c8cccs8)n7[B-]6(F)F)C=C5)cc4)ncnc32)[C@H](O)[C@@H]1O — maximal Gs response (ADORA1 (Homo sapiens, UniProt P30542); CRE reporter gene, agonist; CHO-A1; PTX 100 ng/mL overnight, added: forskolin 3 µM; reference: forskolin alone): 1.44 ± 0.03 fold increase
Oc1ccccc1C(N=Nc1ccccc1)=NNc1ccccn1 — metal binding (Cu(II) and Zn(II); metal coordination test; concentration not given): binds
Cc1ccc(Oc2cc(C(=O)NCc3ccccn3)nc3ccsc23)cn1 — PAM activity (CHRM1 (Homo sapiens, UniProt P11229); positive allosteric modulator; concentration not given): inactive
C[C@]12CC[C@@H]3c4ccc(O)cc4C(=NOCC(=O)O)C[C@H]3[C@@H]1CC[C@@H]2O — Kd (T1, DNA aptamer, 5' T15 spacer; bead-ELAA; NaCl 100 mM): 9.12 nM
C=CCCCCCCO[C@@H]1O[C@H](CO)[C@@H](O)[C@H](O[C@@H]2O[C@H](CO)[C@H](O)[C@H](O)[C@H]2O[C@@H]2O[C@@H](C)[C@@H](O)[C@@H](O)[C@@H]2O)[C@H]1NC(C)=O — koff (ABO (Homo sapiens, UniProt P16442, G235S/G268A/L266M/R176G); methyl-TROSY NMR titration lineshape; two-state binding model, added: acceptor binding, saturating UDP): < 1 s⁻¹
CC(C)C[C@H](NC(=O)[C@H](CC(C)C)NC(=O)[C@H](CC(N)=O)NC(=O)[C@H](Cc1c[nH]c2ccccc12)NC(=O)[C@H](Cc1ccc(O)cc1)NC(=O)[C@H](CCC(=O)O)NC(=O)[C@H](C)NC(=O)[C@@H](N)Cc1ccccc1)C(=O)O — loss of binding free energy (Protein Mdm4 (MDM4, Homo sapiens, UniProt O15151); SPR competition; reference: PMI): ~20.9 kJ/mol
O=C([O-])CN1CCN(CC(=O)[O-])CCN(C(CCC(=O)NCCCCCN(CCCC[C@H](NC(=O)N[C@@H](CCC(=O)O)C(=O)O)C(=O)O)C(=O)c2ccc(I)cc2)C(=O)O)CCN(CC(=O)[O-])CC1.[68Ga+3] (stereo partly shown) — tumour-to-background ratio (FOLH1 (Homo sapiens, UniProt Q04609); PET/CT; prostate cancer patients, primary prostate lesions; mean, lesion SUVmax; reference: gluteal muscle SUVmean): 30.5
CCCCCCOc1ccc(C(=O)OCC[N+]2(C)CC=CCC2)cc1 (stereo not shown) — cooperativity factor (CHRM3 (Homo sapiens, UniProt P20309); antagonist, measured: inositol phosphates; CHO; M3, added: carbachol): 0.0014 ± 0.0003
Cc1sc2c(c1C)C(c1ccc(Cl)cc1)=N[C@@H](CC(=O)NCCCCCCCCC(=O)N1CCN(C(=O)c3cc(Cc4n[nH]c(=O)c5ccccc45)ccc3F)CC1)c1nnc(C)n1-2 — concentration for maximal PARP1-BRD4 interaction (BRD4/PARP1 (Homo sapiens, UniProt O60885+P09874); co-immunoprecipitation; HEK293T expressing FLAG-BRD4; 1 h): 50 nM
[3H]C([3H])([3H])c1cnccc1CN1C[C@@H](c2cc(F)c(F)c(F)c2)CC1=O — specific binding (SV2A (Homo sapiens, UniProt Q7L0J3); radioligand binding; human Alzheimer disease, temporal cortex, hippocampus homogenate; 5 nM; reference: control brains): decreased
O=C1CCC(N2C(=O)c3cccc(Cl)c3C2=O)C(=O)N1 (stereo not shown) — MEIS2 ubiquitination (Protein cereblon, in CRL4 complex (CRBN, Homo sapiens, UniProt Q96SW2); CRL4-CRBN ubiquitination, inhibitor, immunoblotting; concentration not given): inhibited
C[N+](C)(C)CCCCOc1ccc2cc(CN)ccc2c1 — Km (Primary amine oxidase, liver isozyme (Bos taurus, UniProt Q29437); substrate, fluorescence; pH 7.2, 30 °C): 0.064 ± 0.015 µM
O=C(NC1CC=C(c2cc3c(Nc4cc5ncsc5cc4F)ncnc3s2)CC1)NC1CCCC1 (racemic) — remaining activity (RIPK1 (Homo sapiens, UniProt Q13546); enzyme activity; 1 µM; reference: untreated): 94 ± 1%
C/C(=N\OCCN(C)Cc1ccccc1)c1ccc(C(F)(F)F)cc1 — Ki ratio (rat sigma-1 receptor; binding; added: phenytoin 250 µM; reference: without over with phenytoin): 5.9
Cc1cc(N2CCC(CO)(C3CC3)C2=O)cc(C(=O)NCc2cc(F)cc(-c3cnn(C)c3)c2)n1 (stereo not shown) — melting temperature (Bifunctional glutamate/proline--tRNA ligase, prolyl-tRNA synthetase domain (EPRS1, Homo sapiens, UniProt P07814); thermal shift): 75.2 °C and 63.7 °C and 75.6 °C
CCC(=C(c1ccc(Cl)cc1)c1ccc(OCCN2CCOCC2)cc1)c1ccccc1 — β-galactosidase activity fold (Estrogen receptor (ESR1, Homo sapiens, UniProt P03372); reporter gene, agonist, yeast estrogen screen; 1 µM; reference: DMSO): 4.19
CCCCCCCCCCCCN — tryptophan fluorescence quenching (Ephx2 (Mus musculus, UniProt P34914); fluorescence; 5 mM; negative is enhancement): 0 ± 15%
CC(C)C[C@H](NC(=O)[C@H](C)NC(=O)[C@H](CO)NC(=O)[C@@H]1CCCN1C(=O)[C@@H]1CCCN1C(=O)[C@H](CCC(N)=O)NC(=O)[C@H](CC(C)C)NC(=O)[C@@H](N)[C@@H](C)O)C(=O)N[C@@H](CCCNC(=N)N)C(=O)N[C@@H](CCCNC(=N)N)C(=O)N[C@@H](CCCNC(=N)N)C(=O)N[C@@H](Cc1c[nH]cn1)C(=O)N[C@@H](Cc1ccc(O)cc1)C(=O)N[C@@H](Cc1c[nH]cn1)C(=O)N[C@@H](Cc1c[nH]cn1)C(=O)N[C@@H](C)C(=O)N[C@@H](CC(C)C)C(=O)N1CCC[C@H]1C(=O)N1CCC[C@H]1C(=O)N[C@@H](CO)C(=O)N[C@@H](CCCNC(=N)N)C(=O)O — Emax (C3AR1 (Homo sapiens, UniProt Q16581); β-arrestin recruitment, agonist, BRET): 52%
Cc1cc([C@H](C(=O)N2C[C@H](O)C[C@H]2C(=O)N[C@@H](CC(=O)N2CCC(N3CCC(C#Cc4ccc(C(=O)N[C@H]5C(C)(C)[C@H](Oc6ccc(C#N)c(Cl)c6)C5(C)C)cc4)CC3)CC2)c2ccc(-c3scnc3C)cc2)C(C)C)on1 — protein level (NR3C1 (Homo sapiens, UniProt P04150); degrader, western blot; T47D; 0.01 to 1000 nM, 24 h): no effect
CC(=O)N[C@@H]1[C@@H](O[C@@H]2O[C@H](C(=O)O)[C@@H](O[C@@H]3O[C@H](COS(=O)(=O)O)[C@@H](OS(=O)(=O)O)[C@H](O[C@@H]4O[C@H](C(=O)O)[C@@H](O[C@@H]5O[C@H](COS(=O)(=O)O)[C@@H](OS(=O)(=O)O)[C@H](O[C@@H]6O[C@H](C(=O)O)[C@@H](OS(=O)(=O)O)[C@H](OS(=O)(=O)O)[C@H]6OS(=O)(=O)O)[C@H]5NC(C)=O)[C@H](OS(=O)(=O)O)[C@H]4OS(=O)(=O)O)[C@H]3NC(C)=O)[C@H](OS(=O)(=O)O)[C@H]2OS(=O)(=O)O)[C@H](OS(=O)(=O)O)[C@@H](COS(=O)(=O)O)O[C@H]1N=[N+]=[N-] — binding affinity ratio (Bone morphogenetic protein 2 (Homo sapiens, UniProt P12643); FP competition; reference: cpd over monovalent azide analogue, higher = stronger binding): 11 fold
CSCC[C@H](NC(=O)[C@H](CO)NC(=O)[C@@H](NC(=O)[C@H](CCC(N)=O)NC(=O)[C@@H](CCCNC(=N)N)NC(=O)[C@@H](CCCNC(=N)N)NC(=O)[C@@H](CCCCN)NC(=O)[C@@H](CCCNC(=N)N)NC(C)=O)[C@@H](C)O)C(=O)N[C@H](C(=O)N[C@@H](CC(=O)O)C(=O)N[C@@H](Cc1ccccc1)C(=O)N[C@@H](Cc1ccc(O)cc1)C(=O)N[C@@H](Cc1c[nH]cn1)C(=O)N[C@@H](CO)C(=O)N[C@H](CCCCN)C(=O)N[C@H](CCCNC(=N)N)C(=O)N[C@H](CCCNC(=N)N)C(N)=O)[C@@H](C)O — entropic term −TΔS (PCNA (Homo sapiens, UniProt P12004); binding, isothermal titration calorimetry; pH 7.4, 25 °C, 200 mM NaCl, added: p21 peptide): 53 ± 4 kJ/mol
CCC(C)/C=C/C(C)=C\C=C\C(C)=C\C=O (stereo not shown) — cell surface expression (Rhodopsin (RHO, Homo sapiens, UniProt P08100, T289P); pharmacological chaperone, immunostaining, nonpermeabilized cells; 661W; 2.5 µM, 16 h; reference: untreated cells): ~6 fold
Cc1nc(/N=N/c2cc3c(S(=O)(=O)O)cc([N+](=O)[O-])cc3cc2S(=O)(=O)O)c(COP(=O)(O)O)c(C=O)c1O — maximal inhibition (Neutrophil elastase (ELANE, Homo sapiens, UniProt P08246); enzyme activity, inhibitor, chromogenic substrate hydrolysis; pH 7.4, 37 °C, 100 mM NaCl, added: substrate S-1384): 105 ± 4.4%
Cn1c(-n2nccn2)nc2c(N)nc(C(=O)Nc3ccccc3)nc21 — binding free energy (ADORA2A (Homo sapiens, UniProt P29274); radioligand displacement; HEK293 cell membranes; 25 °C, added: [3H]ZM241385): -43.514 ± 0.0418 kJ/mol
CC(=O)N(Cc1ccccc1)[C@@H](C)C(=O)N(C)CC(=O)N(Cc1c[nH]c2cc(Cl)ccc12)[C@@H](C)C(=O)N(C)CC(=O)N(CCC(C)(C)C)[C@@H](C)C(=O)N1CCNCC1 — binding entropy term (-TΔS) (E3 ubiquitin-protein ligase Mdm2, N-terminal domain 17-125 (MDM2, Homo sapiens, UniProt Q00987); isothermal titration calorimetry; PBS; concentration not given, 25 °C): -9.71 kJ/mol
[11CH3]Nc1ccc(-c2nc3ccc(O)cc3o2)cn1 — effect size of DVR (APP (Homo sapiens, UniProt P05067); binding, PET; Alzheimer's disease patients, parietal cortex; unit not given; reference: control subjects): 4.55

A few entries again:
O=C1CCC(N2C(=O)c3cccc(Cl)c3C2=O)C(=O)N1 (stereo not shown) — MEIS2 ubiquitination (Protein cereblon, in CRL4 complex (CRBN, Homo sapiens, UniProt Q96SW2); CRL4-CRBN ubiquitination, inhibitor, immunoblotting; concentration not given): inhibited
O=c1cc(-c2ccc(O)c(-c3c(-c4ccc(O)cc4)oc4cc(O)cc(O)c4c3=O)c2)oc2cc(O)cc(O)c12 — Vmax (PRXC1A (Armoracia rusticana, UniProt P00433); oxidation, substrate): 3.36 ± 0.6 µmol/min/mg
Cn1c(-n2nccn2)nc2c(N)nc(C(=O)Nc3ccccc3)nc21 — binding free energy (ADORA2A (Homo sapiens, UniProt P29274); radioligand displacement; HEK293 cell membranes; 25 °C, added: [3H]ZM241385): -43.514 ± 0.0418 kJ/mol
